Measurements collected from several papers.
Numbered parts are unrelated; each lists some results of a single study. Positions count from the first letter of the parent shown.

Series 1
Target: RING finger protein unkempt homolog, zinc fingers 1-6, GST-SBP tag (UNK, Homo sapiens, UniProt Q9C0B0, residues 30-357)
Sequence of UniProt Q9C0B0 (30-357, looked up): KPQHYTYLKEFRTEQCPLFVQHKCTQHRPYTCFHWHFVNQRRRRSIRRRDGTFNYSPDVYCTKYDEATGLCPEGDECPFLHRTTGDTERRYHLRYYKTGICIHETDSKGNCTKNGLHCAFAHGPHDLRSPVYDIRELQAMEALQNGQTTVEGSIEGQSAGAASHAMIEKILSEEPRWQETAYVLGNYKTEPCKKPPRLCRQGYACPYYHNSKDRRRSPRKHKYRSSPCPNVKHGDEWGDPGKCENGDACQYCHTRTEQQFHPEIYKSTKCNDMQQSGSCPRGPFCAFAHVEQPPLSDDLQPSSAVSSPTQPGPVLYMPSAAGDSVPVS
Technique: RNA Bind-n-Seq
Form: RNA
Medium: in vitro
Tested at: not given
Setting: RNA with constant flanks, human and mouse sites, ends assumed
Reference: input RNA pool
Reading: higher = stronger binding
`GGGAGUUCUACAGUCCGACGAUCCAUGUUAAAGAGCAUCACUUUGGAUCCUCUGGAAUGACAUUGCAUGAACGCUUUACUAAAUACCUAAAGAGAGGAAAUGAACAAGAAGCAGCUAAAAAUAAGAAAAGCCCAGAGAUACACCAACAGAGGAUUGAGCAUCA` gave a bound/input enrichment of 0.276 ratio.
`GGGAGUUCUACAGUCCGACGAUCGCCCAUGAUGCCGUGGCACAGGAAGGCCAAUGUCGGGUAGAUGACAAGGUGAAUUUCCAUUUUAUUCUGUUUAACAACGUGGAUGGCCACCUCUAUGAACUUGAUGGACGAAUGCCUUUUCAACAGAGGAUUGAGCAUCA` gave a bound/input enrichment of 0.104 ratio.
`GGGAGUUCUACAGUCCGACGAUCGAGGUUCCUGCGGACUAGCGGUGGCUUCGCGUGGGUGGAGGAGGCGCGGCUGCAGUCUUUAAGAAAUAGAAAUGGCUUCCAAAAGAGCUCUGGUCAUCCUGGCCAAAGGAGCAGAGGAGACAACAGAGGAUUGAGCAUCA` gave a bound/input enrichment of 0.234 ratio.
`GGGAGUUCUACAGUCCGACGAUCAUGGCUUCUCUGGACGACCCAGGGGAAGUGAGGGAGGGCUUCCUCUGCCCUCUGUGCCUGAAGGAUCUGCAGUCUUUCUAUCAGCUUCACUCACAUUACGAGGAAGAACACUCAGGGGAACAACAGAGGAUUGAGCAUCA` gave a bound/input enrichment of 0.16 ratio.
With `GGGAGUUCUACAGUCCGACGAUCAAAUCUCGAAACAAUGAAUCAGAAAAGUUCAGUUCUAGUUCACCAUUGACUUUACCAGCAGAUUUGAAGAACAUCUUGGAGAAACAGUUUUCUAAAUCUUCCAGAGCUGCACACCAGGAUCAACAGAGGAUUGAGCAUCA` the bound/input enrichment was 0.157 ratio.
`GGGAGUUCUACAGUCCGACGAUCGAGAAGGAAUGGAAACUAGGCCGGUGCAUUUUACGGUUCCCUGAGAUUCUGCAAAAGAUUUUAGAUGACUUAUUUCUCCACACUCUCUGUGAUUAUAUAUAUGAGCUGGCAACUGCUUUCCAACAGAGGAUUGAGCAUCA` gave a bound/input enrichment of 0.446 ratio.

Series 2
Target: Sal-like protein 4, full length isoform B (SALL4, Homo sapiens, UniProt Q9UJQ4-2, residues 1-616)
Technique: universal PBM
Form: double-stranded DNA, one strand shown
Medium: in vitro
Tested at: not given
Setting: 8-mer, flanks averaged, mean of replicates
Reading: higher = stronger binding
`AAATGTTG` gave an E-score of 0.178.
The E-score of `TTGCGAAA` is reported as 0.0706.
For `CACGTTTC`, the E-score was -0.0988.
`CACATACG` gave an E-score of 0.0647.
`CACTGAAA` has an E-score of 0.0675.
With `CTTTGGAA` the E-score was 0.135.
`AACAGCCA` gave an E-score of 0.116.
The E-score of `TCACCGGA` is reported as -0.158.
For `AATCTGAA`, the E-score was 0.165.
For `CTCTATAA`, the E-score was 0.31.
`CACTGCGC` has an E-score of -0.296.
`AGAACTTA` has an E-score of 0.0704.
For `CAGCCTAC`, the E-score was -0.192.
The E-score of `AAATGCGG` is reported as -0.168.
For `AAGCTTCT`, the E-score was 0.0885.
The E-score of `ACGAGCCC` is reported as -0.189.
`GCGGCAGA` has an E-score of -0.282.
`ATCCACCC` gave an E-score of -0.0444.

Series 3
Target: Histone acetyltransferase KAT6A, winged helix 2, GST fusion (KAT6A, Homo sapiens, UniProt Q92794, residues 85-181)
Technique: protein binding microarray
Form: double-stranded DNA, one strand shown
Medium: in vitro
Tested at: not given
Setting: 8-mer, flanks averaged, mean of 2 arrays, mostly near background
Reference: not given
Reading: higher = stronger binding
Residues (chain): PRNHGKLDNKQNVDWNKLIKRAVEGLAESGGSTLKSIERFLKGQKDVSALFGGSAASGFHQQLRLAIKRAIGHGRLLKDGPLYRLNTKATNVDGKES
`AAGCTCTA` has an E-score of -0.0322.
For `CATAGCCC`, the E-score was -0.196.
For `CTCTTTGC`, the E-score was 0.0501.
`CTCTACCA` gave an E-score of -0.0911.
`ACCAAACG` gave an E-score of 0.00941.
The E-score of `ACCAGTTG` is reported as -0.0198.
With `ACGCATAT` the E-score was -0.117.
The E-score of `CCCGAGTC` is reported as 0.152.
`TAATTCAA` has an E-score of 0.106.
For `ACGATCCA`, the E-score was 0.0514.
For `AAAGAACG`, the E-score was -0.00284.
`CTTCGGTA` has an E-score of -0.0743.
`GTTCTTGA` has an E-score of 0.0207.
With `GGAGGGGA` the E-score was 0.242.
`TAGGTTGA` gave an E-score of 0.028.
`GGACAAGA` gave an E-score of -0.0229.
`CGTGCGCC` gave an E-score of -0.0088.
With `ACGCTTAA` the E-score was -0.134.

Series 4
Target: ABI1, truncated, D143A, DHFR fusion (Arabidopsis thaliana)
Technique: DHFR PCA, deep sequencing
Medium: yeast
Setting: methotrexate growth selection, single substitutions
Added: (+)-ABA 2500 µM
Reference: wild-type fitted maximum
Reading: higher = stronger binding
Parent: PYL1, truncated, DHFR fusion (Arabidopsis thaliana); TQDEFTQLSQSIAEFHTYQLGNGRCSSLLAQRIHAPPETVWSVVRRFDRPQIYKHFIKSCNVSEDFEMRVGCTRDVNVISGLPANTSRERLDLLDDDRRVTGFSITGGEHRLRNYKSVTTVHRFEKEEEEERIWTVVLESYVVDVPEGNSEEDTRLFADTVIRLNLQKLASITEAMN
For `M176I`, “relative binding score” read 96.8%.
For `L169R`, “relative binding score” read 0.968%.
Under “relative binding score”, `T106Q` is recorded as 102%.
Under “relative binding score”, `N77A` is recorded as 98.5%.
For `Y115F`, “relative binding score” read 104%.
`A158N`: “relative binding score” 90.7%.
`N22F` — result for “relative binding score”: 95.3%.
For `F56C`, “relative binding score” read 89.9%.
`L94E` — result for “relative binding score”: 45%.
`Q167G` — result for “relative binding score”: 95.3%.
`E129N`: “relative binding score” 105%.
For `A13L`, “relative binding score” read 102%.
`V142M` — result for “relative binding score”: 93.5%.

Series 5
Target: Hepatocyte nuclear factor 3-alpha (Foxa1, Mus musculus, UniProt P35582, residues 1-468, full length assumed)
Sequence of UniProt P35582 (whole entry, looked up): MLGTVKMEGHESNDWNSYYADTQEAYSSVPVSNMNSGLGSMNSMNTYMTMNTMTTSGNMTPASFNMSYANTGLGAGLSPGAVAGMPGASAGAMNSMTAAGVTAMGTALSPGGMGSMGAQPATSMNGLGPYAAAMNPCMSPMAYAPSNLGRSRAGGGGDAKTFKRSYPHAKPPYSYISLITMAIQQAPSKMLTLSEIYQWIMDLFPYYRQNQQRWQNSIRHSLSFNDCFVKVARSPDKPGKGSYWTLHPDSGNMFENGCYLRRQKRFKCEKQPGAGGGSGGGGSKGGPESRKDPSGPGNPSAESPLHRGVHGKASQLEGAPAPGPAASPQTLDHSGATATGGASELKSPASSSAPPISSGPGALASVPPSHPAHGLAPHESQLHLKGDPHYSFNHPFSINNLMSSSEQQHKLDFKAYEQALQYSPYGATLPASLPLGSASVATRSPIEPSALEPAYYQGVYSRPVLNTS
Technique: EMSA with sequencing
Form: double-stranded DNA, one strand shown
Medium: in vitro
Tested at: 10 and 20 nM
Setting: whole designed probe, mean of two concentrations, ends assumed
Reference: negative control set to 0
Reading: higher = stronger binding
`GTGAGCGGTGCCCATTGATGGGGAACTCCTCAGGCTAAAAGCCAGCAAAAAGAATCACCTGGCCAAACATCCCCTTTCAGTCTGCTTTCCTTAGAATGGCCTCCCAGGGGAGCTCTCTGGGCAATCTAAGCAGATGACCTAGTTTGAAGGCCTGGAAAATTATCATGTGAGTCACTGGGACAACAGAGCAAAGTGCCAGGCCCCTGAGAAACTGTAAGCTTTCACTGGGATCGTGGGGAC` — result for “normalised bound fraction”: -0.0418 ratio.
Under “normalised bound fraction”, `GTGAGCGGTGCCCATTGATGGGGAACATCTTCCCCCTCTTCCTTGCCCCACCAGCTCACCTTCCCGGGTATCTGCAAATAAGTATTTATTTTCAAGCCGGCATTCGTTAACCCTCTTCTGGCGCAAACTGCACATTGGTCTGGATGAATCATGGTCCTTTGGCGACGCCAGGCTCCGGGAGAGCAAAGCACCGTGTCAGGGCCATGATCCGGGGTGGCCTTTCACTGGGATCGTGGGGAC` is recorded as 0.139 ratio.
For `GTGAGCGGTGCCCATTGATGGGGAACAGATTAAGTGTTACACTTCTTGCTTTGTTAGATAAATTGAACCACAGCAAATTTTACAAACATAATTTGTCCATATTTTCATAATAAACTCTATGTAAACATCAGTTTTCTTGTTCCTTTAAAAACAAAATAATTCATATCAAACTGTCTTGAATAAGAAAGGCAAACCAGTCACAAGTCCACAATATTAAAGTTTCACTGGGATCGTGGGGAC`, “normalised bound fraction” read 0.391 ratio.
`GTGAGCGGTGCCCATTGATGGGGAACTTCTGAAGAGTCAGAGAAGTTCTGAGTCACCTGGAGATCATTCCAGGAGGAATAAAAGACTTCTACATGTAACCAGCTTACATCATATCCAAAATAAACACAAGGAATATTTAAGCATGACCAAAATGCTGTAATTATTTAATGACAAAACCACATATAACAGGAGGTGGGGACAGTTATTATAAGAACTGGCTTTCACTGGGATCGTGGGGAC`: “normalised bound fraction” 0.281 ratio.
For `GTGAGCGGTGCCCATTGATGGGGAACTGAGGCCATTAATTATAGTGAGACGTATTATAAGATTATTTTCTTCTCCTTTGAGTACTATTTTCATCTCCTTCAAGTTTTTTCTTTCCTGTTTGTTTATTCTGTTCTCTGTGCTTCATGACAGGTCCTTTCCCACATGGCTTGATGTGTGGCTGGCTGTTCATTTTTAGGAGTGAGGCATTATAAACAGGCCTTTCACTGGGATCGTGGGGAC`, “normalised bound fraction” read 0.384 ratio.

Series 6
Target: RNA binding protein fox-1 homolog 2, RRM domain, GST-SBP tag (RBFOX2, Homo sapiens, UniProt O43251-10, residues 100-194)
Technique: RNA Bind-n-Seq
Form: RNA
Medium: in vitro
Tested at: 365 nM
Setting: natural RNA segment, single round, ends assumed
Reference: no-protein control
Reading: higher = stronger binding
Target sequence (chain): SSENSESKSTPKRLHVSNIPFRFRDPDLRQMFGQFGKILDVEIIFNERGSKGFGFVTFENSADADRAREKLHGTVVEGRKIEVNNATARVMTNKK
`GGGAGUUCUACAGUCCGACGAUCUGUAAAGUUAUGUAUUUAAAGUUGUAUCUUGACACAGGAAAUGGGAAAAAACUUAAAAAUUAAUAUGGUGUAUUUUUCCAAAUGAAAAAUCUCAAUUGAAAGCUUUUAAAUGGAAUUCUCGGGUGCCAA`: “RBNS enrichment (R)” 1.08.
Under “RBNS enrichment (R)”, `GGGAGUUCUACAGUCCGACGAUCUUUUGACUGAAAGUACUAAAAGUCAGCUUUACUAGUGCCAAACCUUUAAAUUUUCAAAAGAAAAUUUUCUUUCAACAUUUCUUGAAGGACAUGGAGUGGAGAUUGGAUCAUGGAAUUCUCGGGUGCCAA` is recorded as 0.338.
For `GGGAGUUCUACAGUCCGACGAUCCAGCCUAGUGUAGAGGACCUCUCGAAGACAUGCCCAGGGGUUUUUUUCCAGUGAGGUUGUAGACCCUGCAAACCUAACUGUAACAUAGCCUUCACAAGCAUGAUAAACCCUGGAAUUCUCGGGUGCCAA`, “RBNS enrichment (R)” read 0.511.
`GGGAGUUCUACAGUCCGACGAUCUACAUAAAUGCAUUGACAAUUAUAAAAUGCAAGUGUUUUUUGAAUGAUUUUAAGAAUUUGGCUUAAAAAUUGAUUGAUACAACGUAUUAUUUGUACUAAGAAGUAACUUGUGGAAUUCUCGGGUGCCAA` — result for “RBNS enrichment (R)”: 1.2.

A few entries again (series 5):
`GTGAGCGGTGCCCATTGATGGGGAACTCCTCAGGCTAAAAGCCAGCAAAAAGAATCACCTGGCCAAACATCCCCTTTCAGTCTGCTTTCCTTAGAATGGCCTCCCAGGGGAGCTCTCTGGGCAATCTAAGCAGATGACCTAGTTTGAAGGCCTGGAAAATTATCATGTGAGTCACTGGGACAACAGAGCAAAGTGCCAGGCCCCTGAGAAACTGTAAGCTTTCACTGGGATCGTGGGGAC` — result for “normalised bound fraction”: -0.0418 ratio.
Under “normalised bound fraction”, `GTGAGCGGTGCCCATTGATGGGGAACATCTTCCCCCTCTTCCTTGCCCCACCAGCTCACCTTCCCGGGTATCTGCAAATAAGTATTTATTTTCAAGCCGGCATTCGTTAACCCTCTTCTGGCGCAAACTGCACATTGGTCTGGATGAATCATGGTCCTTTGGCGACGCCAGGCTCCGGGAGAGCAAAGCACCGTGTCAGGGCCATGATCCGGGGTGGCCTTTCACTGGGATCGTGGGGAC` is recorded as 0.139 ratio.
For `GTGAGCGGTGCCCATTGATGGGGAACAGATTAAGTGTTACACTTCTTGCTTTGTTAGATAAATTGAACCACAGCAAATTTTACAAACATAATTTGTCCATATTTTCATAATAAACTCTATGTAAACATCAGTTTTCTTGTTCCTTTAAAAACAAAATAATTCATATCAAACTGTCTTGAATAAGAAAGGCAAACCAGTCACAAGTCCACAATATTAAAGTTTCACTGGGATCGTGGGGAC`, “normalised bound fraction” read 0.391 ratio.
`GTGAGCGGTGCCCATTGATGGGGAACTTCTGAAGAGTCAGAGAAGTTCTGAGTCACCTGGAGATCATTCCAGGAGGAATAAAAGACTTCTACATGTAACCAGCTTACATCATATCCAAAATAAACACAAGGAATATTTAAGCATGACCAAAATGCTGTAATTATTTAATGACAAAACCACATATAACAGGAGGTGGGGACAGTTATTATAAGAACTGGCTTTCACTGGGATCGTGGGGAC`: “normalised bound fraction” 0.281 ratio.
For `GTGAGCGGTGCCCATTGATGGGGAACTGAGGCCATTAATTATAGTGAGACGTATTATAAGATTATTTTCTTCTCCTTTGAGTACTATTTTCATCTCCTTCAAGTTTTTTCTTTCCTGTTTGTTTATTCTGTTCTCTGTGCTTCATGACAGGTCCTTTCCCACATGGCTTGATGTGTGGCTGGCTGTTCATTTTTAGGAGTGAGGCATTATAAACAGGCCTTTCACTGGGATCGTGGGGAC`, “normalised bound fraction” read 0.384 ratio.
